Published values from different studies.
Numbered parts are unrelated; each lists some results of a single study.
Sequence of UniProt Q9NSA0 (whole entry, looked up): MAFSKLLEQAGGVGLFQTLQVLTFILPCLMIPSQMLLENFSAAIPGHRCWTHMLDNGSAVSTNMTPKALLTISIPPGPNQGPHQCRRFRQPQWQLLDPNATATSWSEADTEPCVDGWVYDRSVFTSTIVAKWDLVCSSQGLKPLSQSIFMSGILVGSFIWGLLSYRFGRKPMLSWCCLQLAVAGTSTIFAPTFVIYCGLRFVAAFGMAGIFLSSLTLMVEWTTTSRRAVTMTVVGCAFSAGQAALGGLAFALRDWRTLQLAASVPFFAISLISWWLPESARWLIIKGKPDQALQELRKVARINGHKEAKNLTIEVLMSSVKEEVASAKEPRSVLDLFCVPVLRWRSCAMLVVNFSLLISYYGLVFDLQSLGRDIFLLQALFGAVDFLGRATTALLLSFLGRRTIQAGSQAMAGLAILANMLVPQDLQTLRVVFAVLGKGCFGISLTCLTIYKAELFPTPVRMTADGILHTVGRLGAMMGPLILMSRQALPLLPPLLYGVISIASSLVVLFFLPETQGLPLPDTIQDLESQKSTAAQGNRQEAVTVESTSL

Sample 1
Structure (SMILES): CC(C)n1cnc(-c2ccc(F)cc2)c1-c1ncc(C(=O)Nc2ccc(N3CCN(C)CC3)cc2)[nH]1
Method: phase 2a clinical trial
Refers to: injury and poisoning (SOC)
Species: idiopathic pulmonary fibrosis patients
The “patients with TEAEs” was 1% (60 mg once daily, grade 3 maximum intensity; baseline: patients).
60 mg once daily, grade 1 maximum intensity — “patients with TEAEs”: 0%.
The “patients with TEAEs” was 0% (dose not given, grade 1, all drug arms).
The “patients with TEAEs” was 1% (dose not given, grade 3, all drug arms; baseline: patients).
The “patients with TEAEs” was 0% (30 mg once daily, grade 5 maximum intensity).
It gave 0% for “patients with TEAEs” (30 mg once daily, grade 2 maximum intensity).

Sample 2
Target: Interferon regulatory factor 7, full length, phosphomimetic (IRF7, Homo sapiens, UniProt Q92985, residues 1-503, S101K/S471D/S472D/S475D/S476D/S477D/S483D/S484D/S487D)
Method: protein-binding microarray
Form: double-stranded DNA, one strand shown
Medium: in vitro
Concentration: 250 nM
Notes: 60-bp whole probe
Added: salmon DNA 0.4 mg/ml
Baseline: random background probes
Reading: higher = stronger binding
Shared flanks, not repeated: GCCTAGCAC … GTCTTGATTCGCTTGACGCTGCTG
Residues (chain): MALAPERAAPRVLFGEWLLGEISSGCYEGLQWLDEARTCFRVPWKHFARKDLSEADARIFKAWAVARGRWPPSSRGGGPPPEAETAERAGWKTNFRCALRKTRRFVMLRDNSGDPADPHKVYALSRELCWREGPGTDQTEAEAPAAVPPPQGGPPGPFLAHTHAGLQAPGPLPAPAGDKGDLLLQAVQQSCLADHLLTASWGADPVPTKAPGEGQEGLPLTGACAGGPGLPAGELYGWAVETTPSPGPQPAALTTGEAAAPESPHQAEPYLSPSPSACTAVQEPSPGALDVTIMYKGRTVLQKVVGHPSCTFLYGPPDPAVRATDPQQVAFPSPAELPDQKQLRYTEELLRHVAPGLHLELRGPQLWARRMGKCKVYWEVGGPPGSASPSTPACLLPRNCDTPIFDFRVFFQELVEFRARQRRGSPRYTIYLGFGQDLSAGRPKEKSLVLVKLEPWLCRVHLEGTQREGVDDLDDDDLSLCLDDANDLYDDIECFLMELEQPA
The log fluorescence of `TCATTTTTTTTTCTGATACTGTGCTAG` is reported as 1.31 z-score.
`GACGATATCAGTTTCGATACGTGCTAG` has a log fluorescence of 7.34 z-score.
For `ACTAGTTTTCATTTTCTGAAGTGCTAG`, the log fluorescence was 3.96 z-score.
`GACGGTCTCCTACTGGTGACGTGCTAG` has a log fluorescence of -0.704 z-score.
The log fluorescence of `CCCCTACTGTATTTGGCCAGGTGCTAG` is reported as 0.139 z-score.
With `TCACTTCTGGATCTCAGACTGTGCTAG` the log fluorescence was 0.459 z-score.
For `GACAGTCTCGGACTGGGGACGTGCTAG`, the log fluorescence was 0.0302 z-score.
`GACGATATCGTGACTGGAGACGTGCTA` gave a log fluorescence of -0.409 z-score.

Sample 3
Target: Replicase polyprotein 1ab, nsp13 helicase (rep, Severe acute respiratory syndrome coronavirus 2, UniProt P0DTD1)
Action: inhibitor
Concentration: 20 µM
With `COc1ccc(C2C(=O)c3ccccc3C2=O)cc1` the inhibition was -0.59%.
With `O=S(=O)(O)c1cc(O)ccc1O` the inhibition was 5.75%.
`NC1=NCC2c3ccccc3Cc3ccccc3N12` (centres unmarked) gave an inhibition of 2.75%.
For `Cn1c(=O)cnn(CCCCN2CCN(c3ncccn3)CC2)c1=O`, the inhibition was 6.31%.
`CC(C)(C)C(O)/C=C/c1ccc2c(c1)OCO2` (centres unmarked) has an inhibition of 8.09%.
`CCCCc1ccc(O)cc1O` gave an inhibition of 4.17%.
For `CC(=O)N1CC[N+](C)(C)CC1`, the inhibition was 11%.
With `COc1cc2/c(=N/c3ccc(Br)cc3F)nc[nH]c2cc1OCC1CCN(C)CC1` the inhibition was -1.49%.
`CC1=C(C(=O)OC(C)C)C(c2cccc([N+](=O)[O-])c2)C(C(=O)OC2CN(C(c3ccccc3)c3ccccc3)C2)=C(N)N1` (centres unmarked) has an inhibition of 4.08%.
`c1ccc2nc(C3=NCCN3)cnc2c1` gave an inhibition of 4.49%.
`O=c1c(-c2ccc(O)cc2)coc2cc(O)cc(O)c12` has an inhibition of 4.78%.
`Nc1nc(=O)c2c([nH]1)NCC(CNc1ccc(C(=O)N[C@@H](CCC(=O)O)C(=O)O)cc1)N2C=O` (some centres unmarked) has an inhibition of 1.35%.
For `CNc1ncc2cc(-c3cc(NC(=O)NCCC(C)(C)C)c(F)cc3C)c(C)nc2n1`, the inhibition was 5.91%.
The inhibition of `COc1ccc(C(=O)CCC(=O)O)c2ccccc12` is reported as 2.79%.
With `C=C[C@H]1CN2CC[C@H]1C[C@H]2[C@H](O)c1ccnc2ccccc12` the inhibition was -21.3%.
`N#Cc1ccc2[nH]cc(CCCCN3CCN(c4ccc5oc(C(N)=O)cc5c4)CC3)c2c1` has an inhibition of 5.01%.
`O=C(/C=C\n1cnc(-c2cc(C(F)(F)F)cc(C(F)(F)F)c2)n1)NNc1cnccn1` has an inhibition of 1.59%.
For `CC(=O)NC1=NN(C(C)=O)C(C)(c2ccccc2)S1` (centres unmarked), the inhibition was 3.62%.
`CC1(C)CCC(C)(C)c2cc(NC(=O)c3ccc(C(=O)O)cc3)ccc21` has an inhibition of 0.5%.
`Cc1c(C)c2c(c(C)c1OC(=O)CCC(=O)O)CC[C@@](C)(CCC[C@H](C)CCC[C@H](C)CCCC(C)C)O2` gave an inhibition of 1.93%.
`Cc1nc(-c2cccnc2)sc1C(=O)Nc1ccccc1-c1cn2c(CN3CCOCC3)csc2n1` gave an inhibition of 2.6%.
For `Cc1cccc(C)c1NC(=O)CC12CCCN1CCC2`, the inhibition was 0.01%.
`Cc1c(N2C(=O)[C@@H]3[C@H](O)CCN3C2=O)ccc(C#N)c1Cl` gave an inhibition of 8.82%.

Further values, each from its own experiment
rep main protease: Replicase polyprotein 1ab, main protease (rep, Severe acute respiratory syndrome coronavirus 2, UniProt P0DTD1)
With `C[C@H]1O[C@@H](O[C@H]2[C@@H](O)C[C@H](O[C@H]3[C@@H](O)C[C@H](O[C@H]4CC[C@@]5(C)[C@H](CC[C@@H]6[C@@H]5CC[C@]5(C)[C@@H](C7=CC(=O)OC7)CC[C@]65O)C4)O[C@@H]3C)O[C@@H]2C)C[C@H](O)[C@@H]1O` the activity score was 6.3 (human iPSC-derived cardiomyocytes; MyBP-C/MYH ratio, plate-normalised SD score; concentration not given, primary screen; direction not given).
For `C[C@H]1O[C@@H](O[C@H]2[C@@H](O)C[C@H](O[C@H]3[C@@H](O)C[C@H](O[C@H]4CC[C@@]5(C)[C@H](CC[C@@H]6[C@@H]5CC[C@]5(C)[C@@H](C7=CC(=O)OC7)CC[C@]65O)C4)O[C@@H]3C)O[C@@H]2C)C[C@H](O)[C@@H]1O`, the nuclei count was 1.74 z-score (mouse MPNST tumor cells; high-content nuclear imaging, refers to: cell number; 10 µM, 12 h, mean of 2 replicates; baseline: plate mean, higher = more cells).
For `S=C=NCc1ccccc1`, the IC50 was over 20 µM (rep main protease; enzyme activity, inhibitor; added: DTT).
`O=C1C(CC[S+]([O-])c2ccccc2)C(=O)N(c2ccccc2)N1c1ccccc1` (centres unmarked) has an IC50 of 8.2 µM (Solute carrier family 22 member 11 (SLC22A11, Homo sapiens, UniProt Q9NSA0); transporter uptake, inhibitor, radiometric).
Under “delayed maze test moves”, `Fc1ccccc1Cc1nc(-c2nc(C(F)(F)F)n[nH]2)cn2ccnc12` is recorded as -1.6 (healthy volunteers; 20 mg, single ascending dose, unit not given; baseline: placebo).
For `COc1cc(Nc2c(C#N)cnc3cc(OCCCN4CCN(C)CC4)c(OC)cc23)c(Cl)cc1Cl`, the GFP-positive cells was 45.5% (HEK-293T; pseudovirus infection, FDA-approved drug library screen; VSV pseudotyped with SARS-CoV-2 spike; 10 µM, 16 h; baseline: vehicle-treated).
`[Mn+2]`: “relative specific activity” 0.27 (uncharacterized protein (Bacteroides thetaiotaomicron, UniProt Q8A4G9); phosphatase activity, activator, phosphate release; 5 mM, EDTA-treated enzyme, added: substrate 9 mM; baseline: activity with Mg2+).
`COc1ccc(NC(=O)CC2Sc3ncnn3C2=O)cc1` (centres unmarked) has an inhibition of 78.4% (rep main protease; enzyme activity, inhibitor; 20 µM, primary screen).
With `COC(=O)Nc1c(N)nc(-c2nn(Cc3ccccc3F)c3ncc(F)cc23)nc1N` the AUC ratio was 0.957 (healthy men; oral, dose not given, multiple dose, added: sildenafil 50 mg; baseline: with over without sildenafil).
`OC[C@H]1O[C@@H](O[C@@H]2[C@@H](O)[C@H](O[C@@H]3[C@@H](O)[C@H](O[C@H]4[C@H](O)[C@@H](CO)OC(O)[C@@H]4O)O[C@H](CO)[C@H]3O)O[C@H](CO)[C@H]2O)[C@H](O)[C@@H](O)[C@@H]1O` (some centres unmarked) has a ΔG of -25.7 kcal/mol (Bacteroides thetaiotaomicron; binding, ITC; pH 7.0, 25 °C, middle domain).
